{"data": "Measurements of several laboratories", "note": "Lines come from different studies, so protocols differ. ± marks the error that the study gave."}
{"SMILES": "CC(C)C[C@H](NC(=O)[C@@H]1CCCN1C(=O)[C@H](CCCCN)NC(=O)[C@@H](N)CO)C(=O)N1CCC[C@H]1C(=O)N[C@@H](CCC(=O)O)C(=O)N[C@H](C(=O)N[C@H](C(=O)N[C@@H](CC(=O)O)C(=O)N[C@@H](CCC(=O)O)C(=O)N[C@@H](Cc1ccc(O)cc1)C(=O)N[C@@H](Cc1cn(CCOCCOCCOCCNC(=O)CCc2ccc(O)c(CN(CCN(CC(=O)O)Cc3cc(CCC(=O)NCCCC[C@H](NC(=O)N[C@@H](CCC(=O)O)C(=O)O)C(=O)O)ccc3O)CC(=O)O)c2)nn1)C(=O)O)[C@@H](C)O)C(C)C [gallium-68 labelled]", "system": "NMRI nu/nu mice, LNCaP tumour, pancreas", "conditions": "135.34 nmol/kg, low molar activity", "endpoint": "standardized uptake value", "value": "0.05 g/g"}
{"SMILES": "N=C(N)NCCC[C@@H]1NC(=O)[C@H](CCCCNC(=O)CNC(=O)CNC(=O)CNC(=O)CC[C@H](NC(=O)CCOCCOCCOCCOCCNC(=O)CC[C@H](NC(=O)CN2CCN(CC(=O)O)CCN(CC(=O)O)CCN(CC(=O)O)CC2)C(=O)NCCOCCOCCOCCOCCC(=O)N[C@@H](CCC(=O)NCC(=O)NCC(=O)NCC(=O)NCCCC[C@@H]2NC(=O)[C@@H](Cc3ccccc3)NC(=O)[C@H](CC(=O)O)NC(=O)CNC(=O)[C@H](CCCNC(=N)N)NC2=O)C(=O)NCC(=O)NCC(=O)NCC(=O)NCCCC[C@@H]2NC(=O)[C@@H](Cc3ccccc3)NC(=O)[C@H](CC(=O)O)NC(=O)CNC(=O)[C@H](CCCNC(=N)N)NC2=O)C(=O)NCC(=O)NCC(=O)NCC(=O)NCCCC[C@@H]2NC(=O)[C@@H](Cc3ccccc3)NC(=O)[C@H](CC(=O)O)NC(=O)CNC(=O)[C@H](CCCNC(=N)N)NC2=O)NC(=O)[C@@H](Cc2ccccc2)NC(=O)[C@H](CC(=O)O)NC(=O)CNC1=O [indium-111 labelled]", "system": "female athymic nude mice, intestine", "conditions": "intravenous, 3 µCi, 24 h, U-87 MG glioma xenograft", "endpoint": "tissue uptake", "value": "3.78 ± 1.23 %ID/g"}
{"SMILES": "CSCC[C@H](NC(=O)[C@H](CC(C)C)NC(=O)[C@H](Cc1c[nH]cn1)NC(=O)CNC(=O)[C@@H](NC(=O)[C@H](C)NC(=O)[C@H](Cc1c[nH]c2ccccc12)NC(=O)[C@H](CCC(N)=O)NC(=O)CCCCCNC(=O)CNC(=O)CNC(=O)CNC(=O)CSC(C)=O)C(C)C)C(N)=O [technetium-99m labelled]", "system": "healthy Swiss mouse, small intestine, contents removed", "conditions": "intravenous, 18.5 MBq, 30 min", "endpoint": "tissue uptake", "value": "14.3 ± 2.58 %ID/g"}
{"SMILES": "CCCC[C@H](NC(=O)CNC(=O)CNC(=O)CNC(=O)c1ccc(NN)nc1)C(=O)N[C@H]1CC(=O)NCCCC[C@@H](C(N)=O)NC(=O)[C@H](Cc2c[nH]c3ccccc23)NC(=O)[C@H](CCCNC(=N)N)NC(=O)[C@@H](Cc2ccccc2)NC(=O)[C@H](Cc2c[nH]cn2)NC1=O [technetium-99m labelled]", "system": "C57 mouse, B16/F1 melanoma", "conditions": "2 h", "how to read": "reference: tumour over liver", "endpoint": "uptake ratio", "value": 37.3}
{"SMILES": "CSCC[C@H](NC(=O)[C@H](CC(C)C)NC(=O)[C@H](Cc1c[nH]cn1)NC(=O)CNC(=O)[C@@H](NC(=O)[C@H](C)NC(=O)[C@H](Cc1c[nH]c2ccccc12)NC(=O)[C@H](CCC(N)=O)NC(=O)CCOCCOCCOCCOCCNC(=O)CCCN1C(=O)CC(SC[C@H](NC(=O)[C@H](CCCCNC(=O)c2ccc3c(c2)C(=O)OC32c3ccc(O)cc3Oc3cc(O)ccc32)NC(=O)CC[C@H](C(=O)O)N2CCN(CC(=O)O)CCN(CC(=O)O)CC2)C(N)=O)C1=O)C(C)C)C(N)=O (stereo partly shown)", "test": "shake-flask", "system": "1-octanol/phosphate buffer", "conditions": "pH 7.4, 68Ga-labelled", "endpoint": "logD", "value": -3.27}
{"SMILES": "N=C(N)NCCC[C@@H]1NC(=O)[C@H](CCCCNC(=O)CC[C@H](NC(=O)CCOCCOCCOCCOCCNC(=O)CN2CCN(CC(=O)O)CCN(CC(=O)O)CCN(CC(=O)O)CC2)C(=O)NCCCC[C@@H]2NC(=O)[C@@H](Cc3ccccc3)NC(=O)[C@H](CC(=O)O)NC(=O)CNC(=O)[C@H](CCCNC(=N)N)NC2=O)NC(=O)[C@@H](Cc2ccccc2)NC(=O)[C@H](CC(=O)O)NC(=O)CNC1=O [indium-111 labelled]", "system": "female athymic nude mice, blood", "conditions": "intravenous, 3 µCi, 72 h, U-87 MG glioma xenograft", "endpoint": "tissue uptake", "value": "0.03 ± 0.01 %ID/g"}
{"SMILES": "C=Cc1c(C)c2cc3nc(c4c5[nH]c(cc6nc(cc1[nH]2)C(C)=C6CC)c(C)c5C(=O)C4)[C@@H](CCC(=O)NCC(=O)N1CCC[C@H]1C(=O)N[C@@H](CC(C)C)C(=O)NCC(=O)N[C@@H](Cc1ccccc1)C(=O)N[C@@H](CCCNC(=N)N)C(=O)N[C@H](C(=O)NCC(=O)N[C@@H](CCCCN)C(N)=O)C(C)C)[C@@H]3C", "test": "in vivo fluorescence imaging", "system": "C57BL/6J mouse, DMM osteoarthritis model, knee joint", "conditions": "intra-articular, 1 nmol, 6 h", "endpoint": "decrease of fluorescence signal", "value": "75 ± 6%"}
{"SMILES": "CCCC[C@H](NC(=O)CNC(=O)[C@H](CO)NC(=O)CNC(=O)c1ccc(NN)nc1)C(=O)N[C@H]1CC(=O)NCCCC[C@@H](C(N)=O)NC(=O)[C@H](Cc2c[nH]c3ccccc23)NC(=O)[C@H](CCCNC(=N)N)NC(=O)[C@@H](Cc2ccccc2)NC(=O)[C@H](Cc2c[nH]cn2)NC1=O [technetium-99m labelled]", "system": "C57 mouse, B16/F1 melanoma, pancreas", "conditions": "intravenous, 2 h", "endpoint": "uptake", "value": "0.02 ± 0.02 %ID/g"}
{"SMILES": "N=C(N)NCCC[C@@H]1NC(=O)[C@H](CCCCNC(=O)CCOCCOCCOCCOCCNC(=O)CC[C@H](NC(=O)CCOCCOCCOCCOCCNC(=O)CC[C@H](NC(=O)CN2CCN(CC(=O)O)CCN(CC(=O)O)CCN(CC(=O)O)CC2)C(=O)NCCOCCOCCOCCOCCC(=O)N[C@@H](CCC(=O)NCCOCCOCCOCCOCCC(=O)NCCCC[C@@H]2NC(=O)[C@@H](Cc3ccccc3)NC(=O)[C@H](CC(=O)O)NC(=O)CNC(=O)[C@H](CCCNC(=N)N)NC2=O)C(=O)NCCOCCOCCOCCOCCC(=O)NCCCC[C@@H]2NC(=O)[C@@H](Cc3ccccc3)NC(=O)[C@H](CC(=O)O)NC(=O)CNC(=O)[C@H](CCCNC(=N)N)NC2=O)C(=O)NCCOCCOCCOCCOCCC(=O)NCCCC[C@@H]2NC(=O)[C@@H](Cc3ccccc3)NC(=O)[C@H](CC(=O)O)NC(=O)CNC(=O)[C@H](CCCNC(=N)N)NC2=O)NC(=O)[C@@H](Cc2ccccc2)NC(=O)[C@H](CC(=O)O)NC(=O)CNC1=O [indium-111 labelled]", "test": "radio-HPLC", "system": "athymic nude mice, feces", "conditions": "intravenous, 120 min post-injection", "endpoint": "intact compound", "value": "~45%"}
{"SMILES": "CCCC[C@H](NC(=O)CNC(=O)CNC(=O)c1ccc(NN)nc1)C(=O)N[C@H]1CC(=O)NCCCC[C@@H](C(N)=O)NC(=O)[C@H](Cc2c[nH]c3ccccc23)NC(=O)[C@H](CCCNC(=N)N)NC(=O)[C@@H](Cc2ccccc2)NC(=O)[C@H](Cc2c[nH]cn2)NC1=O [technetium-99m labelled]", "system": "C57 mouse, B16/F1 melanoma, bone", "conditions": "2 h, added: NDP-MSH 6.07 nmol blockade", "endpoint": "uptake", "value": "0.09 ± 0.1 %ID/g"}
